# Experimental data of several laboratories.
# Lines come from different studies, so protocols differ.
# Effect on: metabolic stability
SMILES,host,sample,concentration,pH,endpoint,result
CCN(CC)CC#CCNc1ccnc2cc(Cl)ccc12,CD-1 mouse,liver microsomes,1 µM,pH 7.4,scaled CLint,2740 mL/min/kg
NC(=O)c1c(F)ccc(OCc2nc3cc(Cl)cnc3s2)c1F,mouse,hepatocytes,10 µM,,hepatocyte CLint,9.51 µL/min/10⁶ cells
CCNCC#CCNc1ccnc2cc(Cl)ccc12,CD-1 mouse,liver microsomes,1 µM,pH 7.4,scaled CLint,273 mL/min/kg
CCC(CC)CNC(=N)NC(=N)NCCCCCCNC(=N)NC(=N)NCC(CC)CC,mouse,hepatocytes,1 µM,,scaled CLint,126 mL/min/kg
CCC/C(=C\C1=C(F)C(=O)c2ccccc2C1=O)C(=O)N(CC)CC,mouse,liver microsomes,1 µM,pH 7.4,scaled CLint,24.5 mL/min/kg
CCc1nc(N)nc(N)c1C#CC(C)c1cc(-c2cc(C)nc(C)c2)ccc1OC (centres unmarked),male CD-1 mouse,liver microsomes,5 µg/mL,pH 7.4,microsomal CLint,40 µL/min/mg
CCC/C(=C\C1=C(C(F)(F)F)C(=O)c2ccccc2C1=O)C(=O)N(CC)CC,mouse,liver microsomes,1 µM,pH 7.4,scaled CLint,142 mL/min/kg
C=C(C)C(=O)Nc1ccc(-c2c(-c3ccc(Oc4nccc(C)n4)cc3)c3c(N)ncnc3n2C)cc1,mouse,hepatocytes,,,hepatocyte CLint,21 µL/min/10⁶ cells

# Repeated from above:
SMILES,host,sample,concentration,pH,endpoint,result
CCC/C(=C\C1=C(C(F)(F)F)C(=O)c2ccccc2C1=O)C(=O)N(CC)CC,mouse,liver microsomes,1 µM,pH 7.4,scaled CLint,142 mL/min/kg
